Experimental data from different studies.
Lines come from different studies, so protocols differ. Several values in a cell are separate wells, animals, samples, runs or records. ± gives the spread as reported.
Sequence of UniProt P42680 (whole entry, looked up): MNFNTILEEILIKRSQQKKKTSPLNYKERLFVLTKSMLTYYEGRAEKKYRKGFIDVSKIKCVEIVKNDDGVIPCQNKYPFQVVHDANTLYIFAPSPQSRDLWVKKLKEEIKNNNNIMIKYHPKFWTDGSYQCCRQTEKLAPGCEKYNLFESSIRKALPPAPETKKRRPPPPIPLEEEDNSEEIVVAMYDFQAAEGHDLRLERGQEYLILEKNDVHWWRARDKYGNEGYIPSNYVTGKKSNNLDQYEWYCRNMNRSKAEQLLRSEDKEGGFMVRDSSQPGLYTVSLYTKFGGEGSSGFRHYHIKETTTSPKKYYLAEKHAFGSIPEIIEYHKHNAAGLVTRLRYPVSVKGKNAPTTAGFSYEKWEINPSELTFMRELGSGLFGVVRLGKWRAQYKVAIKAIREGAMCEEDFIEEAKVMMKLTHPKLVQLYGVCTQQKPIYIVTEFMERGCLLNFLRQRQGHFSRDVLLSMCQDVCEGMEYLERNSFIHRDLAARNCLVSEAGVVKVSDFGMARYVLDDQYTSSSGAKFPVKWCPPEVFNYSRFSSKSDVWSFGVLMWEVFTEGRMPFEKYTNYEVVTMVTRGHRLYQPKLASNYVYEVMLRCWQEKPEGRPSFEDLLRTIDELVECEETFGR
Sequence of UniProt P25103 (whole entry, looked up): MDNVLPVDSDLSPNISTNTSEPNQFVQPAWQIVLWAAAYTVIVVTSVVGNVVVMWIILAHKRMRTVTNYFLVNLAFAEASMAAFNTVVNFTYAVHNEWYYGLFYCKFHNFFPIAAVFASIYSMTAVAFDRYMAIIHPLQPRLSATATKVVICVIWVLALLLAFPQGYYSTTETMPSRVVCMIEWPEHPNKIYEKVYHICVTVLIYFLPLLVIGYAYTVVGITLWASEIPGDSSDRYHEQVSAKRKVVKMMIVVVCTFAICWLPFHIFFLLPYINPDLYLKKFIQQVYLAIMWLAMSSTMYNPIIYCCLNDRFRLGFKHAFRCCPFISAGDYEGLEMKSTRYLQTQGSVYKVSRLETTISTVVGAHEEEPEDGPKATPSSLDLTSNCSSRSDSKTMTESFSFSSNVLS

Under “geometric mean MIC”, `CC[C@H](C)[C@H](NC(=O)[C@H](CC(N)=O)NC(=O)[C@H](CC(C)C)NC(=O)[C@@H](NC(=O)[C@@H](N)Cc1ccccc1)[C@@H](C)CC)C(=O)N[C@@H](CC(C)C)C(=O)N[C@@H](CC(=O)O)C(=O)N[C@@H](CCCCN)C(N)=O` is recorded as 256 µM (Gram-negative bacteria).
With `CC(C)CC(C(=O)N1CC2(CC1C#N)C(=O)Nc1ccccc12)N(C)C(=O)c1cc2c(F)cc(F)c(F)c2[nH]1` (stereo not drawn) the inhibition was 42.5% (human coronavirus 229E; viral replication; 4.6e-05 µM).
For `CC(C)C[C@@H]1NC(=O)[C@H](C(C)C)NC(=O)[C@]2(C)CCCN2C(=O)[C@H](C(C)C)NC(=O)[C@H](Cc2ccccc2)NC(=O)CSCCNC(=O)[C@H](Cc2ccccc2)N(C)C(=O)[C@H](CC(C)C)NC(=O)[C@H](CCC2CCCCC2)NC1=O`, the EC50/IC50 ratio was 41.5 (HIV-1; viral replication; MT4; reference: cell EC50 over protease IC50).
For `CC(C)[C@H]1NC(=O)[C@H](Cc2ccccc2)NC(=O)[C@@H](C(C)C)NC(=O)[C@@H](C)NC(=O)[C@H](CO)NC(=O)[C@@H](Cc2c(-c3cccc(-c4ccccc4)c3)[nH]c3ccccc23)NC(=O)[C@@H](CO)NC1=O`, the MIC90 was greater than 100 µM (Mycobacterium marinum).
For `O=C1NC2(CC2)COc2ncc(F)cc2[C@H]2COCCN2c2ccn3ncc1c3n2`, “pancreatic amylase activity” read 2020 ± 130 U/L (Sprague-Dawley rat, male, serum; oral, 5 mg/kg/day, 4 weeks daily, end of recovery period).
With `[O-][N+]1=C(c2ccccc2)C2=NCCN2c2ccccc21` the MIC90 was 0.5 µg/mL (Clostridioides difficile; microbial growth).
`CCCCCCCCCCCC(=O)C(C)C(=O)N1CCC[C@H]1C(=O)NC(C)(C)C(=O)NC(C)(C)C(=O)NC(C)(C)C(=O)N[C@](C)(CC)C(=O)NCCC(=O)N[C@@H](C)C(=O)N[C@](C)(CC)C(=O)N[C@@H](C)C(=O)N[C@@H](CC(C)C)C(=O)N[C@](C)(CC)C(=O)NCCC(=O)N[C@@H](C)C(=O)N[C@](C)(CC)C(=O)NCCC(=O)N[C@@H](C)C(=O)NC(C)(C)C(=O)NC(C)(C)C(=O)NC(C)(C)C(=O)N[C@@H](C)C(=O)N[C@@H](CC(=O)O)C(=O)O` (stereo partly drawn) — result for “chitin level (calcofluor fluorescence)”: 0.0574 a.u. and 0.0573 a.u. (Cryptococcus neoformans; calcofluor white microscopy; H99; half MIC, 4 h, 30 °C, YPD medium; reference: DMSO vehicle, higher = more chitin).
`CCCCCCCCCC(=O)NCCCC[C@H](NC(=O)CCCCCCCCC)C(=O)N[C@@H](CCCCNC(=O)CCCCCCCCC)C(=O)NCC(=O)NCC(=O)NCC(=O)N[C@@H](CS)C(=O)N[C@@H](CCCNC(=N)N)C(=O)N[C@@H](CCCCN)C(=O)N1CCC[C@H]1C(=O)N[C@@H](CS)C(=O)N[C@@H](CCCNC(=N)N)C(=O)N[C@@H](CCCCN)C(=O)N1CCC[C@H]1C(N)=O` — result for “geometric mean MIC”: 28.5 µM (Candida; twelve fungal strains).
`Cc1cc(C(=O)Nc2nc3cccc(C)c3n2[C@H]2CCCCN(C(=O)/C=C/CN(C)C)C2)ccn1`: “cells in S phase” 18.3% (Trypanosoma brucei; propidium iodide flow cytometry; bloodstream form; concentration not given, 48 h).
Under “faecal Nluc luminescence”, `CN(C(=O)c1ccn2ncc(-c3ccc(C(N)=O)cc3)c2c1)c1ccc(C#N)cn1` is recorded as 62 a.u. and 35 a.u. and 15 a.u. and 21 a.u. and 11 a.u. (Cryptosporidium parvum; UGA1 Nluc, IFN-gamma knockout C57BL/6 mice, faeces; oral, 10 mg/kg daily, 168 h post infection, treatment days 3-9; higher means more parasites).
`O=S(=O)(c1ccc(-c2ccc3ncnc(Nc4ccc(OCc5ccc(C(F)(F)F)c(F)c5)c(Cl)c4)c3c2)cc1)N1CCOCC1` has an inhibition of 21% (Trypanosoma cruzi; intracellular amastigote growth, β-galactosidase CPRG; 3T3, Tulahuen, β-galactosidase-expressing; 10 µM, 96 h).
`CN(C)c1nc(NCc2ccc(F)cc2F)c(/N=N/c2ccc(Cl)cc2)c(N(C)C)n1` has a mortality of 100% (Ostrinia furnacalis; leaf dipping; 500 mg/L, 96 h).
`CS(C)(=O)=Nc1ccc(-c2ccc(-c3nc4cc(O[C@@H]5CO[C@H]6[C@@H]5OC[C@H]6O)[nH]c4cc3F)cc2)cc1` has an inhibition of 13% (TACR1 (Homo sapiens, UniProt P25103); calcium signal, antagonist; 10 µM).
`CC(O)CN.O=C(O)C(Cl)Cl` gave an inhibition of 0% (Solanum nigrum; herbicidal activity; 15 mg/mL, 21 days, pre-emergence greenhouse).
With `COc1ccccc1-c1n[nH]c2nc(N[C@H]3CC[C@H](NS(=O)(=O)CC(C)C)CC3)ncc12` the relative abundance was 1.05 (bead binding, competition bead pull-down, measured: LINJ.34.0710; Leishmania donovani extract; 10 µM; reference: vehicle).
With `CN(C)[C@H]1C[C@@]23CC[C@@]4(O2)C(=CC[C@]2(C)[C@@H](c5ccc6ccncc6c5)CC[C@H]24)C=C3[C@@H](O)[C@@H]1O` the inhibition was 8.8% (TEC (Homo sapiens, UniProt P42680); ATP probe labelling, inhibitor, KiNativ profiling; 0.1 µM).
The relative abundance of `COc1ccccc1-c1n[nH]c2nc(NC3CCN(C(=O)Cc4ccc(F)cc4F)CC3)ncc12` is reported as 0.96 (bead binding, competition bead pull-down, measured: LINJ.30.3560; Leishmania donovani axenic amastigote extract; 10 µM; reference: vehicle).
Under “MIC fold change”, `CC[C@H](C)CCCCC(=O)N[C@@H](CCN)C(=O)N[C@H](C(=O)N[C@@H](CCN)C(=O)N[C@H]1CCNC(=O)[C@H]([C@@H](C)O)NC(=O)[C@H](CCN)NC(=O)[C@H](CCN)NC(=O)[C@H](CC(C)C)NC(=O)[C@@H](CC(C)C)NC(=O)[C@H](CCN)NC1=O)[C@@H](C)O` is recorded as 1 (Escherichia coli; daily serial passaging; ATCC 8739; highest sub-MIC, 1 days; reference: initial MIC).

Some of these lines once more:
`Cc1cc(C(=O)Nc2nc3cccc(C)c3n2[C@H]2CCCCN(C(=O)/C=C/CN(C)C)C2)ccn1`: “cells in S phase” 18.3% (Trypanosoma brucei; propidium iodide flow cytometry; bloodstream form; concentration not given, 48 h).
